# Experimental data pooled from the literature.
# A part holds a random share of what one study measured. Several values in a cell are separate wells, animals, samples, runs or records.
# UniProt Q9Y4K4, sequence (whole entry, looked up): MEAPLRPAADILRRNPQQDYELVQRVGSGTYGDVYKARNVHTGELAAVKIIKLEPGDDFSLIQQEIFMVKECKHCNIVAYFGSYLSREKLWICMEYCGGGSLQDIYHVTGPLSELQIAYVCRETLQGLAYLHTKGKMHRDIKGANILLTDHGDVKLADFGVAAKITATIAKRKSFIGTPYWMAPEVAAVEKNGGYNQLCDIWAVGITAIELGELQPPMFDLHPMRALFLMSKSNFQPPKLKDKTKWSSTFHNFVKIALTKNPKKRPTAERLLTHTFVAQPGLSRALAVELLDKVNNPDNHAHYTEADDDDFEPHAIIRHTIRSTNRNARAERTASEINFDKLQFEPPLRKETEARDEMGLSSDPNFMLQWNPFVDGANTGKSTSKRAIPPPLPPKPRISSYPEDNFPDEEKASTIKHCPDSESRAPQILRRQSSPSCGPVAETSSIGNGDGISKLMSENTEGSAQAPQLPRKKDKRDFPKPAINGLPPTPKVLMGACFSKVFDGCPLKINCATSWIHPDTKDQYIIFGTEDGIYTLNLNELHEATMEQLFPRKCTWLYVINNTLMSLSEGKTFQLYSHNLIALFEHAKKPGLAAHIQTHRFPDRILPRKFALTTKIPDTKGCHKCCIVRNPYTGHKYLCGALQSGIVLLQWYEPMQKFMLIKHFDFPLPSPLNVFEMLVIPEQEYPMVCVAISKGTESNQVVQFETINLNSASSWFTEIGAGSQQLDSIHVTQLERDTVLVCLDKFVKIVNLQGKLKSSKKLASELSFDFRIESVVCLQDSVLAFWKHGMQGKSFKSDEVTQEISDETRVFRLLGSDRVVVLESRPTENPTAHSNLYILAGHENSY
# UniProt Q13873, sequence (whole entry, looked up): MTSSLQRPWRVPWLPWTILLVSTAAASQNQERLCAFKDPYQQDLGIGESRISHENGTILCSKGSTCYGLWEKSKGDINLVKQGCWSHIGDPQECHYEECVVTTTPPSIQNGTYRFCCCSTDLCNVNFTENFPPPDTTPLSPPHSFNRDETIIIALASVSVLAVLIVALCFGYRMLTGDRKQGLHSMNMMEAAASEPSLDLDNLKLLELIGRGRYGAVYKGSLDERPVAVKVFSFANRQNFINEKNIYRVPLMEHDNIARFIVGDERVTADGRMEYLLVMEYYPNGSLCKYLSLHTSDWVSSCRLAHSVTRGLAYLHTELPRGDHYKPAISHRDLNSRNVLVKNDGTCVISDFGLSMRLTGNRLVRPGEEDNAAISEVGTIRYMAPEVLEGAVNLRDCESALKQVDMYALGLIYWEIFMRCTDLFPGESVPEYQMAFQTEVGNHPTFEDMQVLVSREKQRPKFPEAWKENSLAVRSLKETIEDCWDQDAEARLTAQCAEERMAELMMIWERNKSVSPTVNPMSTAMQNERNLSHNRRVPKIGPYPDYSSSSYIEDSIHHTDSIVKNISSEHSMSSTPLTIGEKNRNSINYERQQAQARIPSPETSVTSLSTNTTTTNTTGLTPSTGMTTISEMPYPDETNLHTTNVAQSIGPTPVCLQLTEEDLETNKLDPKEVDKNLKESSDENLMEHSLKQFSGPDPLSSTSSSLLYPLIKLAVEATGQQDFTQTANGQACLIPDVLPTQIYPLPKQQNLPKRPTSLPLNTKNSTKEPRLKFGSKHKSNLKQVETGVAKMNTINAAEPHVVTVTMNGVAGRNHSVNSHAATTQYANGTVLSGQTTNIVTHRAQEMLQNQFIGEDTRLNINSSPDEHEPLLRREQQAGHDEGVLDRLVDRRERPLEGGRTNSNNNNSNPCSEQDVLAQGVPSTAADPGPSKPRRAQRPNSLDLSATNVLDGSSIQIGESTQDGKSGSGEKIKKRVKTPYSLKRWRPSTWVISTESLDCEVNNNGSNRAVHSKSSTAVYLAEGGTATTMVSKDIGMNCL
# UniProt Q96PY6, sequence (whole entry, looked up): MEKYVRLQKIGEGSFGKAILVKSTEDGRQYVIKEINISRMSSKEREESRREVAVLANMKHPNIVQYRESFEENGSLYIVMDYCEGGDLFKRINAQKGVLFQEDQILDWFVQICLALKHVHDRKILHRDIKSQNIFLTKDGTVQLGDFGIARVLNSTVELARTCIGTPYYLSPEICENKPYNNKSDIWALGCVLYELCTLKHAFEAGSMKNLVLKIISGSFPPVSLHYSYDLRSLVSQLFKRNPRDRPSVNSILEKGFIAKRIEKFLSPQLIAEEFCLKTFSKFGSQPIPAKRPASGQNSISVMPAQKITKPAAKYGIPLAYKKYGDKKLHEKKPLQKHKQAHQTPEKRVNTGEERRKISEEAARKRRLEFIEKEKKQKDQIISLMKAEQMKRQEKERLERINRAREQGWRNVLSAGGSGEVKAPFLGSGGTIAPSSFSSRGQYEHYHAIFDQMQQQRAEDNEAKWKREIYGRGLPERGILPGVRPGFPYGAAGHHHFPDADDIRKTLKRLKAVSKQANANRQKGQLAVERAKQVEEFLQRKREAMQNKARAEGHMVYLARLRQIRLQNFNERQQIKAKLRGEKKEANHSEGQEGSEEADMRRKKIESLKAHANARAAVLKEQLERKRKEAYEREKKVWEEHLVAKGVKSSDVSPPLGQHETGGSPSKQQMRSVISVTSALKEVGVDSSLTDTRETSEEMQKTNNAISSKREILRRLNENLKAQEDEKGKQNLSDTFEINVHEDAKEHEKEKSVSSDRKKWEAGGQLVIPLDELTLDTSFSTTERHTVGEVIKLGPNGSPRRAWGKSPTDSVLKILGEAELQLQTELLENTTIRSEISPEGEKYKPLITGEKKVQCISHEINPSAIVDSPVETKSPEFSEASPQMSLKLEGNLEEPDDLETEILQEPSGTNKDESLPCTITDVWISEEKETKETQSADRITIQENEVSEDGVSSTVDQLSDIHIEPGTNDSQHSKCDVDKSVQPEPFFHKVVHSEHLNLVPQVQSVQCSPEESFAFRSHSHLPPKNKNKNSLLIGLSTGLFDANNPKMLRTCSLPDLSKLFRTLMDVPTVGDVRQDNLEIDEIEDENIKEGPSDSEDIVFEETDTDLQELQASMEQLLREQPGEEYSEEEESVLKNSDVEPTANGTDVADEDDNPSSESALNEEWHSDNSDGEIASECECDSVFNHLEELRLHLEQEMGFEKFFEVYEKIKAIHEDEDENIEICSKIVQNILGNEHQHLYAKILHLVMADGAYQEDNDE
# UniProt P10398, sequence (whole entry, looked up): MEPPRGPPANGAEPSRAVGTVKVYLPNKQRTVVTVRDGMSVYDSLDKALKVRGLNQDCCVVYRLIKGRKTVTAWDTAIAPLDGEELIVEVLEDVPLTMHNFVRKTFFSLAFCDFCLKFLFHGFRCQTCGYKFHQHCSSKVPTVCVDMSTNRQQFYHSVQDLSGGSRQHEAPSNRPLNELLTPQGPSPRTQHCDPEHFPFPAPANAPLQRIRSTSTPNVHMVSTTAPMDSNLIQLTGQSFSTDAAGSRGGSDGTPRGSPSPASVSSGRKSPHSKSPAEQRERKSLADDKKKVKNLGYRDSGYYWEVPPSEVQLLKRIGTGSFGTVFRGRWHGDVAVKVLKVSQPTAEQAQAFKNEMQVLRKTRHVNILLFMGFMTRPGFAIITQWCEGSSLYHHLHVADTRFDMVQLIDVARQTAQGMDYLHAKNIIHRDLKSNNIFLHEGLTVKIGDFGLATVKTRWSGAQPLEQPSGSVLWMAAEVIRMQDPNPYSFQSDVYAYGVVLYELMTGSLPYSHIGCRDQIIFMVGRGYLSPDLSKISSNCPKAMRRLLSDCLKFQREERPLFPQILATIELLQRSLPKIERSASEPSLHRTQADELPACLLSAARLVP
# UniProt P36507, sequence (whole entry, looked up): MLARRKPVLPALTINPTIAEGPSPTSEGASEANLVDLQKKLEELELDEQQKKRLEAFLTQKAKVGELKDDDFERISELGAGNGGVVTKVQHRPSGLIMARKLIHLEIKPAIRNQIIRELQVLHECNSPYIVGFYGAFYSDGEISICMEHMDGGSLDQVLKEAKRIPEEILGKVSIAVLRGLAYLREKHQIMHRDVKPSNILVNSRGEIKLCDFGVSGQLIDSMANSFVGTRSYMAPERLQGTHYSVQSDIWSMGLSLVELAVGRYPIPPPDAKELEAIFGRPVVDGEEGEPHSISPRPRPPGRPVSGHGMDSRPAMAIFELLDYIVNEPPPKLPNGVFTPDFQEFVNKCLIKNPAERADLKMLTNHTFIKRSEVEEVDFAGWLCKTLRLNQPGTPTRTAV
# UniProt Q52WX2, sequence (whole entry, looked up): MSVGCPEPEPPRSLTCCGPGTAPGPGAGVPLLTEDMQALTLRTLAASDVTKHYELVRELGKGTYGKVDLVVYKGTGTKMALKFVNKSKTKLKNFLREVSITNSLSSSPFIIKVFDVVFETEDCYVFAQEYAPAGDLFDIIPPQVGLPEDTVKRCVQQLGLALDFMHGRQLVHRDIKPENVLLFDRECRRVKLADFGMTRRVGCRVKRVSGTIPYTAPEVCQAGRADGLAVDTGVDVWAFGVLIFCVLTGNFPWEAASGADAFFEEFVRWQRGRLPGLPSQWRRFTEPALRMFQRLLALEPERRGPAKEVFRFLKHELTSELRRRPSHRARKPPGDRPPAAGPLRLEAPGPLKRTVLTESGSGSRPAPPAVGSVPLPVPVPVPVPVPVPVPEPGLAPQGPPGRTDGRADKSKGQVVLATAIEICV
# UniProt P49841, sequence (whole entry, looked up): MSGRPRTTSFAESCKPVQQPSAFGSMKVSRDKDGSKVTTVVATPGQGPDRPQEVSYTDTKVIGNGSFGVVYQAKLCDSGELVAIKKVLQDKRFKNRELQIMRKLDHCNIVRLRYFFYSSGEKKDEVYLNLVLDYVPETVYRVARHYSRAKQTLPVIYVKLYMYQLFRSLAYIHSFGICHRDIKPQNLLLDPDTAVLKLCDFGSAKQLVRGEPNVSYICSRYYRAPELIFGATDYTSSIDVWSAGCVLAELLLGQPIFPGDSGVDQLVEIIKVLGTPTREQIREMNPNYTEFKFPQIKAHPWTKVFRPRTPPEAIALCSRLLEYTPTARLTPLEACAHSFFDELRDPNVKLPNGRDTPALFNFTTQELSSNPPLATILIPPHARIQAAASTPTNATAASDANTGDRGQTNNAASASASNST

# Series 1
# Cell line: A-375
# Tested at: 100 µM
# Time: 18 h
SMILES,viability [%]
C[C@H](CCC(=O)O)[C@H]1CC[C@H]2[C@@H]3C(=O)C[C@@H]4CC(=O)CC[C@]4(C)[C@H]3CC(=O)[C@]12C,84.5
NC(=O)N[C@@H](CCC(=O)O)C(=O)O,93.6
C[C@]12CCC(=O)C=C1CC[C@@H]1[C@@H]2[C@@H](O)C[C@@]2(C)[C@H]1CC[C@]2(O)C(=O)CO,106
COc1ccccc1OCC(O)COC(N)=O (stereo not drawn),109
O=C(N/N=C/c1ccc([N+](=O)[O-])o1)c1ccc(O)cc1,26.8
O=C(O)c1cc(/N=N/c2ccc(O)c(C(=O)O)c2)ccc1O,91.3
c1ccc2c(CC3=NCCN3)cccc2c1,77.4
CN(C)CCN(Cc1ccccc1)c1ccccn1,63
CO/N=C1\CN(c2nc3c(cc2F)c(=O)c(C(=O)O)cn3C2CC2)CC1CN (stereo not drawn),76.1
CC(C)(Oc1ccc(CCNC(=O)c2ccc(Cl)cc2)cc1)C(=O)O,106

# Series 2
# SMILES: C[C@H](c1ccnc(Nc2nc3ccc(-c4cc(N(C)C)ncn4)cc3[nH]2)c1)N1CCN(C(=O)CC(F)(F)F)CC1
# Tested at: 0.1 µM
target,read-out,technique,remaining binding
"Protein kinase C epsilon type (PRKCE, Homo sapiens, UniProt Q02156)",cell-free assay,competition with immobilised ligand,96%
"BMP-2-inducible protein kinase (BMP2K, Homo sapiens, UniProt Q9NSY1)",cell-free assay,competition with immobilised ligand,100%
"Bone morphogenetic protein receptor type-2 (BMPR2, Homo sapiens, UniProt Q13873)",cell-free assay,competition with immobilised ligand,100%
"Leukocyte tyrosine kinase receptor (LTK, Homo sapiens, UniProt P29376)",cell-free assay,competition with immobilised ligand,100%
"Phosphatidylinositol 4,5-bisphosphate 3-kinase catalytic subunit alpha isoform (PIK3CA, Homo sapiens, UniProt P42336, Q546K)",cell-free assay,competition with immobilised ligand,45%
"Serine/threonine-protein kinase MRCK gamma (CDC42BPG, Homo sapiens, UniProt Q6DT37)",,competition binding,79%
"Tyrosine-protein kinase BTK (BTK, Homo sapiens, UniProt Q06187)",cell-free assay,competition with immobilised ligand,100%
"Ribosomal protein S6 kinase alpha-2, N-terminal kinase domain (RPS6KA2, Homo sapiens, UniProt Q15349)",cell-free assay,competition with immobilised ligand,98%
"Protein-tyrosine kinase 2-beta (PTK2B, Homo sapiens, UniProt Q14289)",cell-free assay,competition with immobilised ligand,91%
"Mitogen-activated protein kinase kinase kinase kinase 5 (MAP4K5, Homo sapiens, UniProt Q9Y4K4)",cell-free assay,competition with immobilised ligand,96%
"Mitogen-activated protein kinase kinase kinase 13 (MAP3K13, Homo sapiens, UniProt O43283)",cell-free assay,competition with immobilised ligand,100%
"Serine/threonine-protein kinase SBK1 (SBK1, Homo sapiens, UniProt Q52WX2)",cell-free assay,competition with immobilised ligand,85%
"Dual specificity mitogen-activated protein kinase kinase 2 (MAP2K2, Homo sapiens, UniProt P36507)",cell-free assay,competition with immobilised ligand,100%
"Serine/threonine-protein kinase 36 (STK36, Homo sapiens, UniProt Q9NRP7)",cell-free assay,competition with immobilised ligand,97%
"Mitogen-activated protein kinase kinase kinase 20 (MAP3K20, Homo sapiens, UniProt Q9NYL2)",cell-free assay,competition with immobilised ligand,98%

# Series 3
# SMILES: COc1cc2ncnc(Nc3cccc(Cl)c3)c2cc1OC
# Read-out: enzyme activity
# Mode: inhibitor
# Tested at: 0.5 µM
# Baseline: control
target,remaining activity [%]
"Macrophage-stimulating protein receptor (MST1R, Homo sapiens, UniProt Q04912)",87.8
"Serine/threonine-protein kinase A-Raf (ARAF, Homo sapiens, UniProt P10398)",108
"Casein kinase I isoform gamma-3 (CSNK1G3, Homo sapiens, UniProt Q9Y6M4)",92.4
"Casein kinase I isoform gamma-2 (CSNK1G2, Homo sapiens, UniProt P78368)",97.1
"Glycogen synthase kinase-3 beta (GSK3B, Homo sapiens, UniProt P49841)",98.7
"Fibroblast growth factor receptor 1 (FGFR1, Homo sapiens, UniProt P11362)",84.9
"Serine/threonine-protein kinase Nek1 (NEK1, Homo sapiens, UniProt Q96PY6)",93.1
"Serine/threonine-protein kinase TAO2 (TAOK2, Homo sapiens, UniProt Q9UL54)",96.1
"Angiopoietin-1 receptor (TEK, Homo sapiens, UniProt Q02763)",88.6
"Ephrin type-A receptor 3 (EPHA3, Homo sapiens, UniProt P29320)",97.9
"Mitogen-activated protein kinase kinase kinase 14 (MAP3K14, Homo sapiens, UniProt Q99558)",107
"Activin receptor type-1B (ACVR1B, Homo sapiens, UniProt P36896)",98
"Serine/threonine-protein kinase Nek6 (NEK6, Homo sapiens, UniProt Q9HC98)",105

# Other studies, line by line
Compound,cell line,technique,tested at,time,quantity,result
CC(C)C[C@@H]1NC(=O)[C@@H](N(C)C(=O)[C@H](CC2CCC2)NC(=O)[C@@H]2C[C@@H](F)CN2C(=O)C2(C(F)(F)F)CC(F)(F)C2)CCCCNC(=O)C2(CC2)NC(=O)[C@H](Cc2cc(Cl)ccc2Cl)N(C)C1=O,human CD34+ HSPC,EdU flow cytometry,3000 nM,24 h,S-phase cells,43.1% and 38.4%

# For quick reference, copied from above (series 2):
target,read-out,technique,remaining binding
"Protein kinase C epsilon type (PRKCE, Homo sapiens, UniProt Q02156)",cell-free assay,competition with immobilised ligand,96%
"BMP-2-inducible protein kinase (BMP2K, Homo sapiens, UniProt Q9NSY1)",cell-free assay,competition with immobilised ligand,100%
